Experimental data of several laboratories.
± marks the error that the study gave.
PHO4: PHO4 1-312 (Saccharomyces cerevisiae, UniProt P07270)
Sequence of UniProt P07270 (whole entry, looked up): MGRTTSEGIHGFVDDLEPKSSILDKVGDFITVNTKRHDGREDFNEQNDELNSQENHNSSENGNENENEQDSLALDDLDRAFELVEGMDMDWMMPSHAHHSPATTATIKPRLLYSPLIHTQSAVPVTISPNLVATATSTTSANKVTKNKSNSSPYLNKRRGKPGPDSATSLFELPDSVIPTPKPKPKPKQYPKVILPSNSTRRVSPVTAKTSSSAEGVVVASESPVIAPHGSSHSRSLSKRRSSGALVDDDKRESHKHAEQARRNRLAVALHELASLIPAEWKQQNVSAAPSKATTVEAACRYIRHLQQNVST
U2AF2: U2AF2 148-342 (Homo sapiens, UniProt P26368)
Sequence of UniProt P26368 (whole entry, looked up): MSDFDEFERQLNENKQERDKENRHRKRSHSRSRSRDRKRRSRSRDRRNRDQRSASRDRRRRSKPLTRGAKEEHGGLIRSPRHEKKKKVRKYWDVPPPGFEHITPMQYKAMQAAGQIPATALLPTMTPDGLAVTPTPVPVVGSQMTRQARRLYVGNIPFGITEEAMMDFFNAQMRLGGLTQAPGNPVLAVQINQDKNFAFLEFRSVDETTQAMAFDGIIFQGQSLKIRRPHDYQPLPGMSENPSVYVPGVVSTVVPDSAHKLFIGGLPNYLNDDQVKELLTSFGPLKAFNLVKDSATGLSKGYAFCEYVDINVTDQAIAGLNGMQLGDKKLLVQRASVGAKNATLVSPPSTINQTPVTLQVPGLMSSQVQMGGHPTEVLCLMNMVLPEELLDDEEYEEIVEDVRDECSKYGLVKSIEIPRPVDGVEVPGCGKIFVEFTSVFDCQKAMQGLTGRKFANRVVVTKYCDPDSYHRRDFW
SPT15 full length assumed: SPT15 full length assumed (Saccharomyces cerevisiae, UniProt P13393)
Sequence of UniProt P13393 (whole entry, looked up): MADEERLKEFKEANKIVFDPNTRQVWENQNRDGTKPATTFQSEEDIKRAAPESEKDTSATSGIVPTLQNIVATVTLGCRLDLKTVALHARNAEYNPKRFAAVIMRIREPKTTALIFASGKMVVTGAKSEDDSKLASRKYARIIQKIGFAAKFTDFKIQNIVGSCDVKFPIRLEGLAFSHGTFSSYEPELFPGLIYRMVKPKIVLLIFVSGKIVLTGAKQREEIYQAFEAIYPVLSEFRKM
ulaR full length assumed: ulaR full length assumed (Escherichia coli, UniProt P0A9W0)
Sequence of UniProt P0A9W0 (whole entry, looked up): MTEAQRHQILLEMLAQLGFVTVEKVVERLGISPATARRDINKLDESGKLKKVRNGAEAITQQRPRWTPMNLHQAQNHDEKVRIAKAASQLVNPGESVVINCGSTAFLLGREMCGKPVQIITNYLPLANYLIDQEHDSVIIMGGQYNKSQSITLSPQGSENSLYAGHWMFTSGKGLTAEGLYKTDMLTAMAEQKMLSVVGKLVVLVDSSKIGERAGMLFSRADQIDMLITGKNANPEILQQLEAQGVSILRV
CBF1 full length assumed: CBF1 full length assumed (Saccharomyces cerevisiae, UniProt P17106)
Sequence of UniProt P17106 (whole entry, looked up): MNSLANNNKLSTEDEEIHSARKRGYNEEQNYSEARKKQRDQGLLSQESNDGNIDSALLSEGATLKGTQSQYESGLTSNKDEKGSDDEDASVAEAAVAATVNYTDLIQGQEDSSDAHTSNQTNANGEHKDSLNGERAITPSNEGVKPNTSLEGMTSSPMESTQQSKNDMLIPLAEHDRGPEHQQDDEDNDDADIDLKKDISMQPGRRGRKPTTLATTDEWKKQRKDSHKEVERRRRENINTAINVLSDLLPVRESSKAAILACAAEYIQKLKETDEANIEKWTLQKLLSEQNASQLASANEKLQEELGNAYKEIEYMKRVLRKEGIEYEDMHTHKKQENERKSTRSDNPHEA
pdhR full length assumed: pdhR full length assumed (Escherichia coli, UniProt P0ACL9)
Sequence of UniProt P0ACL9 (whole entry, looked up): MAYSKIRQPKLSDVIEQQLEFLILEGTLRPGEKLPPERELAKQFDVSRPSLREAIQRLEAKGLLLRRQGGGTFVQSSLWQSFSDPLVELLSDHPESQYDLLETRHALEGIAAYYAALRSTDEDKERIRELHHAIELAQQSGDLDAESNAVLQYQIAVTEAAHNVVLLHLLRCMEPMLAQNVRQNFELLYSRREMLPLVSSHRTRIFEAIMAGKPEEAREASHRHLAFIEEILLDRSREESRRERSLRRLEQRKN
PARP1: PARP1 1-1014 (Homo sapiens, UniProt P09874)
Sequence of UniProt P09874 (whole entry, unmodified, looked up): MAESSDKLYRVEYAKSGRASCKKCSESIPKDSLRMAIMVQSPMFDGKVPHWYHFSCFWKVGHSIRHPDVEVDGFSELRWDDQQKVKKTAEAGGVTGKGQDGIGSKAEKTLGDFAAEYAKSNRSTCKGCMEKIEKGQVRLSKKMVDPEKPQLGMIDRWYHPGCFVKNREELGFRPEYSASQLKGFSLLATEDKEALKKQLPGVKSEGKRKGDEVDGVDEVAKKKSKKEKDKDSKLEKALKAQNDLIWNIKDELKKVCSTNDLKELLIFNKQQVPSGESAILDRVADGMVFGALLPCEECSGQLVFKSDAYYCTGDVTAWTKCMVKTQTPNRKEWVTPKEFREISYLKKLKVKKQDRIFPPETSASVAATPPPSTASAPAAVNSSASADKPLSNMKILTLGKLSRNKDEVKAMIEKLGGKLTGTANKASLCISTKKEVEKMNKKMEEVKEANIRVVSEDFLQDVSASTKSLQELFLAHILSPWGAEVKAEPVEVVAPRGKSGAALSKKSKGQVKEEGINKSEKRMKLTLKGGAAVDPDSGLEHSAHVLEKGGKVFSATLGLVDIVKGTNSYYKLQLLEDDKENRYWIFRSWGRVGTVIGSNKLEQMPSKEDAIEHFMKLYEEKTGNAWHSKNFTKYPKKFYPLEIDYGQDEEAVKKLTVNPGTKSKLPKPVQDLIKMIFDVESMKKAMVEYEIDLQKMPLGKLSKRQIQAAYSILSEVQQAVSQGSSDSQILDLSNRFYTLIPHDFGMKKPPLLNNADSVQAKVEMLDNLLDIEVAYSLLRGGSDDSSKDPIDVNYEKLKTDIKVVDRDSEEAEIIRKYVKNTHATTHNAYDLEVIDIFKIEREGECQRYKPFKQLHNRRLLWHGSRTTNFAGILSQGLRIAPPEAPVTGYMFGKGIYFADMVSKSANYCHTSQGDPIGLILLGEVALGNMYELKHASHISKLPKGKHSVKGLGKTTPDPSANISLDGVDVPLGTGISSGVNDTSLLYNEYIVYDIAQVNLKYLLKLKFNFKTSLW
nac full length assumed: nac full length assumed (Escherichia coli, UniProt Q47005)
Sequence of UniProt Q47005 (whole entry, looked up): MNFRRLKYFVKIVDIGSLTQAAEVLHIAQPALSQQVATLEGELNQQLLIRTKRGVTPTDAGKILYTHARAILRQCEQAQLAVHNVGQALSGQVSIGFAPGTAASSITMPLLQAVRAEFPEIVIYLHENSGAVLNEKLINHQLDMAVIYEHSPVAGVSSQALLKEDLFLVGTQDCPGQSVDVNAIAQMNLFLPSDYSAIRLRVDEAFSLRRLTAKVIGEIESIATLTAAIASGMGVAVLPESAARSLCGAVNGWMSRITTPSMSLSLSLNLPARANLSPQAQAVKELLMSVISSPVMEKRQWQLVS
Sequence of UniProt Q13950 (whole entry, looked up): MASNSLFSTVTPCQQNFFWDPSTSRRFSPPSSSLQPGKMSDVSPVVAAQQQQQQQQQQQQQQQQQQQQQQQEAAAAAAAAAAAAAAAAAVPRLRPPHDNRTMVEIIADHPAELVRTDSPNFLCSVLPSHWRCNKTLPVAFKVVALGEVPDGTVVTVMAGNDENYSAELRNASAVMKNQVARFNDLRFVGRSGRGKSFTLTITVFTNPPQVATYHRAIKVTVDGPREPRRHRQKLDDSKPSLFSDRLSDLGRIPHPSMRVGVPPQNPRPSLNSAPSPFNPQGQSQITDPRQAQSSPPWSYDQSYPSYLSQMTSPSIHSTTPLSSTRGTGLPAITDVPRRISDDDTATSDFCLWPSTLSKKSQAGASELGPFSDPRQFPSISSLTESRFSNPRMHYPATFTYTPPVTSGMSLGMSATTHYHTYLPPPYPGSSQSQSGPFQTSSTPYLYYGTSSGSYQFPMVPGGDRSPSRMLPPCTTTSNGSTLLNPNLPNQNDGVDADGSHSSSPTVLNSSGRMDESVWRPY
Sequence of UniProt Q9H165 (whole entry, looked up): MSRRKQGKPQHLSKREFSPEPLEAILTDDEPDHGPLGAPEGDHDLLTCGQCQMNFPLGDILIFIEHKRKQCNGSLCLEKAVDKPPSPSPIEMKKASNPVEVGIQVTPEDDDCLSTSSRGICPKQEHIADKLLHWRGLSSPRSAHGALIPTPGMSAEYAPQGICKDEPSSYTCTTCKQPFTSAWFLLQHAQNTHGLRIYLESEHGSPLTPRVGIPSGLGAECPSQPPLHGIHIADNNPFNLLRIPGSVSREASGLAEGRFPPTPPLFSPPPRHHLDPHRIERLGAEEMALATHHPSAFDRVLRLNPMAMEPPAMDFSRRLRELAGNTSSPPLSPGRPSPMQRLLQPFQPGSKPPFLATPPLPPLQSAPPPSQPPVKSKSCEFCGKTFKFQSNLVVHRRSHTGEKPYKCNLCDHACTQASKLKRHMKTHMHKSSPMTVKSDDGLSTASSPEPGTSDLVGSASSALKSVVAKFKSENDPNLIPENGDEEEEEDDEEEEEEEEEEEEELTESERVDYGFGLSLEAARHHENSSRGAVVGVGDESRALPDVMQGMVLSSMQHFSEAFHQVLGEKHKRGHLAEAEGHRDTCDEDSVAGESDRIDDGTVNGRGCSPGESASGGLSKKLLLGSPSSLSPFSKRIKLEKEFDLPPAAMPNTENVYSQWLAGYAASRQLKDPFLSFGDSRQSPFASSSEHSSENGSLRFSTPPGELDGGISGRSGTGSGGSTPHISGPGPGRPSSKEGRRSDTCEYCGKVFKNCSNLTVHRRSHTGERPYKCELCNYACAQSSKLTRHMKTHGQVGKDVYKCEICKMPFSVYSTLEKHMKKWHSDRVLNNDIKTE
Sequence of UniProt O15347 (whole entry, looked up): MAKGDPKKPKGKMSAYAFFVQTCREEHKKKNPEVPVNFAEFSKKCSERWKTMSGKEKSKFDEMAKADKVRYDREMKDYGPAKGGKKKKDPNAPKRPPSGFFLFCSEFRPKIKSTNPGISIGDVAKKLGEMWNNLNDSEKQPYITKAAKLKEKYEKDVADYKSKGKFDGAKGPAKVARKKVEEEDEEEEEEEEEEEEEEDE

CAATACACTGTTATCAGATACACGTGTCGAGCTACTCGTTCGGTTATCCGGCGGTATGAC (dsDNA) — Kd (PHO4; MITOMI; double-stranded DNA, one strand shown; not purified): 165 ± 4 nM
GGGTTGCGGCCGCTTGGG (dsDNA; blunt, 5'-phosphate) — Kd (PARP1 full length assumed (Homo sapiens, UniProt P09874); stopped-flow fluorescence anisotropy; double-stranded DNA, one strand shown): 3.7 nM
AAUUUGUUU (ssRNA) — Kd (U2AF2; sequencing of bound RNA; RNA; motif only): 4020 nM
GGGCUGCUGCUGCUGCUGCUGCUGCUGCUGCUGCUGCUGCCC (structured RNA) — Kd (MBNL1 1-253 (Homo sapiens, UniProt Q9NR56); EMSA; folded RNA): 9 ± 1 nM
TCCTGAAGGGGCGCACTAGCTTGGTCCTATCGTCGTCAAGTCAATCGGTCC (dsDNA; 5'-amino-C6 primer) — Kd (SPT15 full length assumed; array; double-stranded DNA, one strand shown; TBP alone): 3 ± 0.31 nM
GAUACAGAGAAGA (ssRNA) — Kd (SART3 697-786 (Homo sapiens, UniProt Q15020); ITC; RNA): 850 ± 180 nM
AGATCTCCATCCTTGGGATATGGCTACCAGAAAGTAAAGGGACGATACAAGTCAAGTGAGA (dsDNA) — Kd (ulaR full length assumed; BLI; double-stranded DNA, one strand shown): 12000 nM
CTTGACCAATGC (dsDNA) — Kd (BCL11A 737-795 (Homo sapiens, UniProt Q9H165); ITC; double-stranded DNA, one strand shown): 225 ± 19 nM
CAATACACTGTTATCAGACACACGTGTCTAGCTACTCGTTCGGTTATCCGGCGGTATGAC (dsDNA) — Kd (PHO4; MITOMI; double-stranded DNA, one strand shown; not purified): 107 ± 3 nM
CAGAGGATGTGGCTTC (dsDNA) — Kd (RUNX2 111-287 (Homo sapiens, UniProt Q13950); fluorescence anisotropy; double-stranded DNA, one strand shown; Mg2+ 5 mM): 1200 ± 390 nM
CGCGGACACGTGTACACGTTCACACGTTGACACGTTTACACTACCACACTACGACCTCCGGCGGTATGAC (dsDNA) — Kd (CBF1 full length assumed; MITOMI; double-stranded DNA, one strand shown; not purified): 110 ± 10 nM
GCAAUUUGG (ssRNA) — Kd (U2AF2; sequencing of bound RNA; RNA; motif only): 17300 nM
CGCCACGTGGTGACGTGGTTACGTGTAGACGTGTATACGTGTCCACGTGTCGACGCTCCGGCGGTATGAC (dsDNA) — Kd (CBF1 full length assumed; MITOMI; double-stranded DNA, one strand shown; not purified): 58 ± 5 nM
UUCAGAGGA (ssRNA) — Kd (SRSF1 1-248 (Homo sapiens, UniProt Q07955); fluorescence polarization; RNA): 38 ± 2 nM
GTAAAGTAGGAACGGTATTAATAGAAATGATACTAAAGTACGAAATAATAAACTGGAATTT (dsDNA) — Kd (ulaR full length assumed; BLI; double-stranded DNA, one strand shown): 3050 nM
GGCAGAGGCATTTTCGAGC (ssDNA; 5' C6 amino digoxigenin, internal Cy5) — Kd (anti-digoxigenin antibody (sheep); bead-based flow cytometry): 5.6 nM
UUGAGCUCC (ssRNA) — Kd (U2AF2; sequencing of bound RNA; RNA; motif only): 540 nM
AGCGTCACAGACATGAACATGGTCTGACCATTTGTCCTCGGCAAGTGGCTTAAGACAGGAA (dsDNA) — Kd (pdhR full length assumed; BLI; double-stranded DNA, one strand shown): 3.5 nM
GGUGCCUCCAUCACCUGGUCUUUGUAGACCACCUGAUGGAGGCACCC (RNA; hairpin with terminal loop) — Kd (GATA1 200-311 (Homo sapiens, UniProt P15976); fluorescence anisotropy; folded RNA): < 1300 nM
ACAGGGGTGTGGGCACAGGGGTGTGGGC (G-quadruplex DNA (Homo sapiens); intramolecular G4) — Kd (IGF2 fragment (Homo sapiens); SPR; folded DNA; with: IGF-2 0.5-50 nM): 0.21 nM
RNA 1 GCAGUAGGGUGAGGGUGUUGGCAGGGAGCGCCCUCCCCCAUAGUGU / RNA 2 ACACUAUGGGGGAGGGCGCUCCCUGCCAACACCCUCACCCUACUGC (dsRNA) — Kd (PARP1; fluorescence polarization; double-stranded RNA; Hill coefficient 0.67): 188 ± 30 nM
ATGGCGGGCTATGATCCTAT (dsDNA) — Kd (HMGB3 full length assumed (Homo sapiens, UniProt O15347); fluorescence anisotropy; double-stranded DNA, one strand shown): 70 ± 7 nM
GCGGATGAAGACTGGTGTGGTTGGGGGTCTGGCGGGGGGTGGGGAGGGCTGCGGGTGTGCCCTAAATACGAGCAAC (ssDNA; single-stranded) — Kd (Superoxide dismutase [Cu-Zn] 1-154 (Botrytis cinerea, UniProt A0A384JBV7); ELONA; folded DNA): 0.83 ± 0.22 nM
ACAUUCAUG (ssRNA) — Kd (U2AF2; sequencing of bound RNA; RNA; motif only): 14000 nM
GGTAACTTAGCGTCTCGTTGTGCTTAGGTATGACGAGGAATGGAATGCGATGCGCATAACG (dsDNA) — Kd (ulaR full length assumed; BLI; double-stranded DNA, one strand shown): 165 nM
CTGAAGGGGGGGCTATAAAAGTTAGTGGGGGCTCCTCAAGTCAATCGGTCC (dsDNA; 5'-amino-C6 primer) — Kd (SPT15 full length assumed; array; double-stranded DNA, one strand shown; TBP alone): 1.09 ± 0.06 nM
GGTAACTTAGCGTCTCGTTGTGATTAAGTTTGACGAGGAATGGAATGCGATGCGCATAACG (dsDNA) — Kd (nac full length assumed; BLI; double-stranded DNA, one strand shown): 7430 nM
RNA 1 GCGGUGUAUAGCCUAAUCUUUACCGC / RNA 2 GCGGUAAAGAUUAGGCUAUACACCGC (dsRNA) — Kd (PARP1 216-1014 del1-215 (Homo sapiens, UniProt P09874); fluorescence polarization; double-stranded RNA; Hill coefficient 0.85): 126 ± 10 nM
GUCUUCAUU (ssRNA) — Kd (U2AF2; sequencing of bound RNA; RNA; motif only): 180 nM
TTTGCGTGGGCTGTGGTGCTTT (ssDNA) — Kd (traI 309-858 (Escherichia coli, UniProt P14565); fluorescence titration; single-stranded DNA): 6.9 ± 1.3 nM
CTCAGGAATTCCTATAAAGTAATGTGGAGCTCAGTTCAAGTCAATCGGTCC (dsDNA; blunt; 5'-amino-C6 primer) — Kd (SPT15 full length assumed; EMSA; double-stranded DNA, one strand shown): 5.5 ± 1.5 nM
CATTCGCCCGCTATAAGTAAACCCTATGGAACTCATCATAAATGAGACTTTTACCTTATGA (dsDNA) — Kd (nac full length assumed; BLI; double-stranded DNA, one strand shown): 3.02 nM
CUUGAUUUU (ssRNA) — Kd (U2AF2; sequencing of bound RNA; RNA; motif only): 3780 nM
CGGCAGGACGUACAUCCCUCCCGGCUCCCCUCCCGCUGGCCUGCCG (RNA; extended stem-loop) — Kd (PARP1; fluorescence polarization; folded RNA; Hill coefficient 1.07): 42 ± 2.7 nM
CAATACACTGTTATCAGGCACACGTGTCGAGCTACTCGTTCGGTTATCCGGCGGTATGAC (dsDNA) — Kd (CBF1 1-351 (Saccharomyces cerevisiae, UniProt P17106); MITOMI; double-stranded DNA, one strand shown; not purified): 182 ± 10 nM
AAACUUUGU (ssRNA) — Kd (U2AF2; sequencing of bound RNA; RNA; motif only): 4590 nM
DNA 1 TCAAAGTATCCAAATGAACGAATATGACTTTAGGAGTAGAGCGCGTGAGGATACA / DNA 2 TGTATCCTCACGGCGTCTAC (dsDNA; primer/template, 3' dideoxy-C, 5' overhang, mismatches) — Kd (polA 324-928 (Escherichia coli, UniProt P00582); fluorescence polarization; double-stranded DNA; without H2O2, with: dTTP): 45.6 nM
TCGGCTGGGAGGGGAGGTGTAGCCGGTCTTTGGGGTCAAGTCAATCGGTCC (dsDNA; 5'-amino-C6 primer) — Kd (SPT15 full length assumed; array; double-stranded DNA, one strand shown; TBP alone): 0.97 ± 0.07 nM
GCAGCCCTGGTTAAAAACAAGGTTTATAAATATTGGTTTAAAAGCAGGTTAAAAGACAGGTTAGCGGTGG (ssDNA) — Kd (trfA 98-382 G254D/S267L/R347E (Escherichia coli, UniProt P07676); SPR; single-stranded DNA): 77 nM
TTCTGATCACCGACATGAAAGCTAACAGGAACGTTAAGTGCCTTAGCTCCGGCTACCGTGC (dsDNA) — Kd (pdhR full length assumed; BLI; double-stranded DNA, one strand shown): 14900 nM
CGCTGATCACGTGATGACGTGATTACGTGCAGACGTGCATACGTGCCCACGTGCCCTCCGGCGGTATGAC (dsDNA) — Kd (PHO4 full length assumed (Saccharomyces cerevisiae, UniProt P07270); MITOMI; double-stranded DNA, one strand shown; not purified): 34 ± 4 nM
AGCGTCACAGACATGAAATTGGTAAGACCAATTGACTTCGGCAAGTGGCTTAAGACAGGAA (dsDNA) — Kd (pdhR full length assumed; BLI; double-stranded DNA, one strand shown): 3.73 nM
CTGAAGGGGGGGCTATAAAAGGGGGTGGGGGCTCCTCAAGTCAATCGGTCC (dsDNA; 5'-amino-C6 primer) — Kd (SUA7 full length assumed (Saccharomyces cerevisiae, UniProt P29055); array; double-stranded DNA, one strand shown; TFIIB alone): 2.72 ± 1.02 nM
AUAUGAAUUU (ssRNA) — Kd (DND1 1-230 (Homo sapiens, UniProt Q8IYX4); MST; RNA): 5100 nM
